Results from different studies.
Each line is one published result; not all experiments were run side by side. ± gives the spread as reported.
CYP3A4: Cytochrome P450 3A4 (CYP3A4, Homo sapiens, UniProt P08684)
Sequence of UniProt P08684 (whole entry, unmodified, looked up): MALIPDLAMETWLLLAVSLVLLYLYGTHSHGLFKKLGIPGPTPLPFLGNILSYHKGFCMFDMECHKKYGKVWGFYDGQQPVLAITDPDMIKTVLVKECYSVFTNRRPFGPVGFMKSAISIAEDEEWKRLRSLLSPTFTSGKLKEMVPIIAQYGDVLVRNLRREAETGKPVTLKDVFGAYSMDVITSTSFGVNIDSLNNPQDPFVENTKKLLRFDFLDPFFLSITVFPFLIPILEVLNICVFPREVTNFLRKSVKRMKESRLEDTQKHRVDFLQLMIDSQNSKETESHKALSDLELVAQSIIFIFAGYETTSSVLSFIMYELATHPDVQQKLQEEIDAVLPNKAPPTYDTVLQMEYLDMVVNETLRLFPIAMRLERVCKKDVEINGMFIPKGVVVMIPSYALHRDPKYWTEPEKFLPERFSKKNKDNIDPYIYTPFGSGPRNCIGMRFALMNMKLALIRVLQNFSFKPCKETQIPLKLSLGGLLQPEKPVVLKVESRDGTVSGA

C[C@]12CCC(=O)C=C1CC[C@@H]1[C@@H]2CC[C@@]2(C)[C@H]1CC[C@@]2(O)C/C=C/C[C@]1(O)CC[C@H]2[C@@H]3CCC4=CC(=O)CC[C@]4(C)[C@H]3CC[C@@]21C — Kd (CYP3A4; binding, absorbance; pH 7.4): 0.24 µM
Cc1ncc2n1-c1ccc(Cl)cc1C(c1ccccc1F)=NC2 — kfast (CYP3A4; ligand, stopped flow; 40 µM, pH 7.4, opt-WT variant): 0.19 ± 0.03 s⁻¹
CC[C@H](C)[C@@H]([C@@H](CC(=O)N1CCC[C@H]1[C@H](OC)[C@@H](C)C(=O)N[C@@H](Cc1ccccc1)c1nccs1)OC)N(C)C(=O)[C@@H](NC(=O)C(C)(C)N)C(C)C — Cmax ratio (CYP3A4; patients; added: fluconazole multiple dose; relative to: with over without fluconazole): 102%
CC1=N[C@]2(C(=O)CO)[C@@H](C[C@H]3[C@@H]4C[C@@H](O)C5=CC(=O)C=C[C@]5(C)[C@H]4[C@@H](O)C[C@@]32C)O1 — IC50 (CYP3A4; enzyme activity, inhibitor; pooled human liver microsomes; 30 min preincubation with NADPH, added: midazolam substrate): > 50 µM
OCc1ncc2n1-c1ccc(Cl)cc1C(c1ccccc1F)=NC2 — AUC ratio (CYP3A4; human; 75 mg once daily, day 1, added: midazolam 7.5 mg; relative to: compound over midazolam): 0.369
Cc1ncc2n1-c1ccc(Cl)cc1C(c1ccccc1F)=NC2 — half-life (CYP3A4; healthy female humans, plasma; oral, dose not given, day 1, probe cocktail alone): 5.2 ± 1.6 h
COc1cc(/C=C/c2ccc(O)cc2)cc(OC)c1 — IC50 (CYP3A4; enzyme activity, inhibitor; human, liver microsomes; 10 min, pH 7.4, midazolam probe): > 100 µM
OCCCCc1ccc2ccc3cccc4ccc1c2c34 — Kd (Cytochrome P450 3A4 (CYP3A4, Homo sapiens, UniProt P08684, D214E/L211F); FRET titration by dilution; pH 7.4, L211F/D214E mutant, excess substrate, enzyme:substrate 1:6, added: HPCD 0.6 mg/mL): 16.4 ± 16.5 µM
C=CC[C@]1(O)CC[C@H]2[C@@H]3CCC4=CC(=O)CC[C@]4(C)[C@H]3CC[C@@]21C — IC50 (CYP3A4; enzyme activity, inhibitor): 2.8 µM
O=C(O)C(F)(F)C(F)(F)C(F)(F)C(F)(F)C(F)(F)F — IC50 (CYP3A4; enzyme activity, inhibitor; Supersomes, added: 7-BFC substrate): > 100 µM

For quick reference, copied from above:
C[C@]12CCC(=O)C=C1CC[C@@H]1[C@@H]2CC[C@@]2(C)[C@H]1CC[C@@]2(O)C/C=C/C[C@]1(O)CC[C@H]2[C@@H]3CCC4=CC(=O)CC[C@]4(C)[C@H]3CC[C@@]21C — Kd (CYP3A4; binding, absorbance; pH 7.4): 0.24 µM
